Assay results from different studies.
Protocols differ between the studies behind these lines.
HDAC1: Histone deacetylase 1 (HDAC1, Homo sapiens, UniProt Q13547)
Chain of UniProt Q13547 (whole entry, looked up): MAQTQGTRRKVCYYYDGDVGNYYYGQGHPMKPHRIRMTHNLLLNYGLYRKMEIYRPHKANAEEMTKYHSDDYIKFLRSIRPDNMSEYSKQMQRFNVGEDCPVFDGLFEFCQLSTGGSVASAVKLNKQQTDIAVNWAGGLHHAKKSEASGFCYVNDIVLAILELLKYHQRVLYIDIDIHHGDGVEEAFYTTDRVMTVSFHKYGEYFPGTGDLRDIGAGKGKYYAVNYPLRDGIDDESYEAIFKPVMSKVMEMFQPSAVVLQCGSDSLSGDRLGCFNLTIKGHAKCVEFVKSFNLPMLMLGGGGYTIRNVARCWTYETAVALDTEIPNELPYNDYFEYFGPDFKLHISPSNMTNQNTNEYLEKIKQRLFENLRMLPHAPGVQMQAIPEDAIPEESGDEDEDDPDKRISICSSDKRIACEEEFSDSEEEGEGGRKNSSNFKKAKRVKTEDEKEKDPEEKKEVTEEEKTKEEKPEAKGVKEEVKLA
Chain of UniProt O08914 (whole entry, looked up): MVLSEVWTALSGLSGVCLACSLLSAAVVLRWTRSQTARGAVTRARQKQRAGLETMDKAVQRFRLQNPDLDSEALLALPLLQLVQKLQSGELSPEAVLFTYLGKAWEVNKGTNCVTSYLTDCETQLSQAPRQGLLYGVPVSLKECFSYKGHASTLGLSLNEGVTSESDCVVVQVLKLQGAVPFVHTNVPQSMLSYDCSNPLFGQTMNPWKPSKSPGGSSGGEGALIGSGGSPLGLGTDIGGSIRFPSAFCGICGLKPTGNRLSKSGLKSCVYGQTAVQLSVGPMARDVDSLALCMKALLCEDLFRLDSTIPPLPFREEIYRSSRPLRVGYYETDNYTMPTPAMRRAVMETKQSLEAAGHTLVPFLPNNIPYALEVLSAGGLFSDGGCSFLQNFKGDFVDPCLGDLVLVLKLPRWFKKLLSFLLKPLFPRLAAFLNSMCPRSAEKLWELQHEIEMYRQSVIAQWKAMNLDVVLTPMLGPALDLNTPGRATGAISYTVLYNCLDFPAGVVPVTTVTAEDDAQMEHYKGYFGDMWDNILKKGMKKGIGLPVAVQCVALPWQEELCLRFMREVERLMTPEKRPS
Chain of UniProt Q96S53 (whole entry, looked up): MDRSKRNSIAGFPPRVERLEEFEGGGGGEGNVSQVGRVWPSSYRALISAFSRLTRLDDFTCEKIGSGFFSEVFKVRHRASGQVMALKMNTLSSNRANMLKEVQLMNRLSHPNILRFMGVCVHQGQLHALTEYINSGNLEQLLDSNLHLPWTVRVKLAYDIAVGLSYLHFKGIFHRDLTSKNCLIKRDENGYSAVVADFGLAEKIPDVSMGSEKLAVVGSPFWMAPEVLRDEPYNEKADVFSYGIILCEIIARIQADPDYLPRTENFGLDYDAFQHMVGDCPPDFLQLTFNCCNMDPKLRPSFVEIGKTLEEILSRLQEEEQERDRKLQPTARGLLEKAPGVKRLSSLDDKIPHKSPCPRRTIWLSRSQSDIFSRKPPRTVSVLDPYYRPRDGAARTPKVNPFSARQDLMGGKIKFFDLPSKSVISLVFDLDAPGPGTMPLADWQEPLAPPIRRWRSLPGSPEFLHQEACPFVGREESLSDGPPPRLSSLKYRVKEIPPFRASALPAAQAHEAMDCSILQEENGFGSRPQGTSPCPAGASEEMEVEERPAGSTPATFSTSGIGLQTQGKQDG
Chain of UniProt P17787 (whole entry, looked up): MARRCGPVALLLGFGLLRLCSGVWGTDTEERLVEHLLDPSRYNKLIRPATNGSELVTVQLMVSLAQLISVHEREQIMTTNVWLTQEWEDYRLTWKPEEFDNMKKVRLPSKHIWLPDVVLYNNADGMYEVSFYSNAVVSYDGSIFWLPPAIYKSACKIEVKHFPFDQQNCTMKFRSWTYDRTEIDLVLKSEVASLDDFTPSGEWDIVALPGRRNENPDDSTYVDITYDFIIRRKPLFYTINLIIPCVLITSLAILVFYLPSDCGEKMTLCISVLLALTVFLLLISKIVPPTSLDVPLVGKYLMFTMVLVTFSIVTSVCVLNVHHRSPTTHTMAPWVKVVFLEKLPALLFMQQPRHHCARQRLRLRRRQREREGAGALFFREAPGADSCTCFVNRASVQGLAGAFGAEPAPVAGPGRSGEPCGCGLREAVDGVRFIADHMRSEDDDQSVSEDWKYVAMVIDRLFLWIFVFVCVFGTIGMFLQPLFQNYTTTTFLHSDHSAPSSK
Chain of UniProt P07711 (whole entry, looked up): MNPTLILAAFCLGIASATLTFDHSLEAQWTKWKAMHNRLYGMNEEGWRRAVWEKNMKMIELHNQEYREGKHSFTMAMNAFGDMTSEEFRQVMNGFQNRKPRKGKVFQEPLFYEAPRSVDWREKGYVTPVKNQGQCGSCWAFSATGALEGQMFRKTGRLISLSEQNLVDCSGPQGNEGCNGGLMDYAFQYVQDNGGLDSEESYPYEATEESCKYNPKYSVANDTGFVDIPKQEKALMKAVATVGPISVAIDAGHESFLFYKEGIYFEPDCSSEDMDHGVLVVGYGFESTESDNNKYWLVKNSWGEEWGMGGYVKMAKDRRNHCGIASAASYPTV
Chain of UniProt P31639 (whole entry, looked up): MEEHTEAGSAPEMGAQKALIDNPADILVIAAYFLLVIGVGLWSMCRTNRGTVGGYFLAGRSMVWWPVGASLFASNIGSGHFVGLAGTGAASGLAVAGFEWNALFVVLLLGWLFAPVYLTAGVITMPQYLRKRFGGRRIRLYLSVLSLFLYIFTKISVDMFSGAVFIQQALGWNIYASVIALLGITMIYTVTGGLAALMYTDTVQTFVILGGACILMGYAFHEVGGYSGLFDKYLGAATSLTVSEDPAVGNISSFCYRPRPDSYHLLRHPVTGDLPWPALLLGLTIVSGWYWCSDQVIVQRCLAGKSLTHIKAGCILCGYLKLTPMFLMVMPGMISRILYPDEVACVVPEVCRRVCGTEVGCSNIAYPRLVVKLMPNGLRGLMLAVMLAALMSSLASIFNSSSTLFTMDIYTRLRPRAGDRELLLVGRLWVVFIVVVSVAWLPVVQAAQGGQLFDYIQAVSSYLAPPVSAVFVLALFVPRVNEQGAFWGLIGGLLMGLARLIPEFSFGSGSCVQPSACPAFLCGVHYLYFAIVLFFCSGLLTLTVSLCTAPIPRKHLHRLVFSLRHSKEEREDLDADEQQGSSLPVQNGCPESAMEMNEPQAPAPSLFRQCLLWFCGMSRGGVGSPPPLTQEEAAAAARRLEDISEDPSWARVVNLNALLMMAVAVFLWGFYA
Chain of UniProt Q8N755 (whole entry, looked up): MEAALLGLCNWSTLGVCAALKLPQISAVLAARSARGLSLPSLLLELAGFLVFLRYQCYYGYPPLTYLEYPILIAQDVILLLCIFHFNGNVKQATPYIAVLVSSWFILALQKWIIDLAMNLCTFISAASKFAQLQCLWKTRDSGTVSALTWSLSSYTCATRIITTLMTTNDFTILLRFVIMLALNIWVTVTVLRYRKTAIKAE
Chain of UniProt P31391 (whole entry, looked up): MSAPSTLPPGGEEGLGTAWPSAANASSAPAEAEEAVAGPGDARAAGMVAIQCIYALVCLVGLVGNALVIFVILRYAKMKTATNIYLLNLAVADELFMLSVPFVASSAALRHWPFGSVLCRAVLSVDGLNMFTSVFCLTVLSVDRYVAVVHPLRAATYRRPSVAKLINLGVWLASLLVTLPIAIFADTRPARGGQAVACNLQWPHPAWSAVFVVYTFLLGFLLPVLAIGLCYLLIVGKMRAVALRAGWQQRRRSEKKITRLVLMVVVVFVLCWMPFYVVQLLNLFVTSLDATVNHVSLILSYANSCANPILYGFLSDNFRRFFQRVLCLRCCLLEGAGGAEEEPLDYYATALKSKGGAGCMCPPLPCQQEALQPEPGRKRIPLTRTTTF
Chain of UniProt P43681 (whole entry, looked up): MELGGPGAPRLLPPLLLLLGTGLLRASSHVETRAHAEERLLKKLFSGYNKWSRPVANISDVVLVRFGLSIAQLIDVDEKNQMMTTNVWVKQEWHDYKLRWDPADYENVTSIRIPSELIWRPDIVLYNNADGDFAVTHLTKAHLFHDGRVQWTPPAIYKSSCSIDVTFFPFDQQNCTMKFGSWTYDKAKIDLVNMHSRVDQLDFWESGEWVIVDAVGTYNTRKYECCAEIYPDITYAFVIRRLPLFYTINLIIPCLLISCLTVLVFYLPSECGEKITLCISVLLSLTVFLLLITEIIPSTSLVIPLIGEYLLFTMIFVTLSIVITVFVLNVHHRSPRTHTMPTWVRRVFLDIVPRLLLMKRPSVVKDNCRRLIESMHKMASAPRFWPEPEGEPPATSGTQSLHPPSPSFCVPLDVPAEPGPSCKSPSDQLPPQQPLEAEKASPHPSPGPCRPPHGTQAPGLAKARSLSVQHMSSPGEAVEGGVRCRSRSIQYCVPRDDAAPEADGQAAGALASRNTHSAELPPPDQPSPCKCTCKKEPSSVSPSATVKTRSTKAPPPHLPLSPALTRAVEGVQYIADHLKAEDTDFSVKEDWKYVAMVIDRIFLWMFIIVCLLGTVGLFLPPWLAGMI
Chain of UniProt Q9NR20 (whole entry, looked up): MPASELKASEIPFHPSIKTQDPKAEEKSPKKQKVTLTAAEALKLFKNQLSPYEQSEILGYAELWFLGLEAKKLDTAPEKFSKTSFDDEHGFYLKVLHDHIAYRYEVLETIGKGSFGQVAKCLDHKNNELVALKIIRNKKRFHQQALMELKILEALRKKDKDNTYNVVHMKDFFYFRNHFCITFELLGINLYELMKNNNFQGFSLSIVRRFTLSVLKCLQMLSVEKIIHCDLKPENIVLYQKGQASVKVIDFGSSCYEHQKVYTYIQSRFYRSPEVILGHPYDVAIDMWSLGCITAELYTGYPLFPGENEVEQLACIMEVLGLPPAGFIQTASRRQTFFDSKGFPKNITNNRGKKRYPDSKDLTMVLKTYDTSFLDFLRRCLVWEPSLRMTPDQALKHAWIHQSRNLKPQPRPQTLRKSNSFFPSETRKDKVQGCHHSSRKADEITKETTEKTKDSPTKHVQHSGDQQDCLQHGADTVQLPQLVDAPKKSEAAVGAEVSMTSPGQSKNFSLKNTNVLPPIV

COc1ncc2nc(C)n(Cc3ncc(S(N)(=O)=O)cc3F)c2c1-c1ccccc1 — inhibition (Neuronal acetylcholine receptor; alpha4/beta2 (Homo sapiens, UniProt P17787+P43681); antagonist, cell-based; 10 µM): -3.75%
C[Si](C)(C)C[C@H](CN)CC(=O)O — inhibition (nicotinic acetylcholine receptor, rat; binding, radioligand binding; 250 µM, added: [3H]cytisine): -1%
Cc1c(COc2cc(OCc3cccc(C#N)c3)c(CN3CCCC[C@@H]3C(=O)O)cc2Cl)cccc1-c1cccc(OCCCCCC(=O)NO)c1 — inhibition (HDAC1; enzyme activity, inhibitor; 1 µM): 85.3%
Cc1ccc(CNC(=O)[C@H](CCc2ccccc2)NC(=O)[C@H](CC(=O)NCC(C)(C)C)NC(=O)c2ccc(OCc3ccccc3)cc2)cc1 — inhibition (Procathepsin L (CTSL, Homo sapiens, UniProt P07711); enzyme activity, inhibitor; 100 µM): 3%
Cc1cccc(O[C@H]2CCC[C@@H](C(C)CNCc3ccncc3)C2)c1 (relative stereo) — inhibition (DYRK4 (Homo sapiens, UniProt Q9NR20); enzyme activity, inhibitor; 1 µM): 0%
COC1C(c2ccc(Cl)c(Cc3ccc(OC4CCOC4)cc3)c2)OC(CO)C(O)C1O (centres unmarked) — inhibition (SLC5A2 (Homo sapiens, UniProt P31639); transporter uptake, inhibitor, radiometric; NIH3T3; 0.1 µM): 38.3%
C=CC(=O)N1[C@H](c2ccc3c(c2)OCO3)c2[nH]c3ccccc3c2C[C@@H]1C(=O)NC1CC1 — inhibition (Solute carrier family 66 member 3 (SLC66A3, Homo sapiens, UniProt Q8N755); cysteine IA-DTB labelling, covalent inhibitor, MS-ABPP; 22Rv1; 20 µM, in situ treatment; reference: DMSO): 47%
CN(C)C(=O)n1ccnn1 — inhibition (Faah (Mus musculus, UniProt O08914); serine hydrolase activity, inhibitor, competitive gel-based ABPP; mouse T-cell proteome; 1 µM, 30 min, 37 °C): > 95%
CC(C)Cn1c(SCC(=O)N2CCc3ccccc3C2)nc2cc(Cl)ccc2c1=O — inhibition (sigma receptor 2; radioligand binding; 10 µM): 9%
COc1ccc(S(=O)(=O)N2CCc3ccccc3C2)cc1N1CCN(C(=O)c2ccc(F)cc2C(F)(F)F)CC1 — inhibition (HTR2C (Homo sapiens, UniProt P28335); binding, radioligand binding, antagonist site; 1 µM): 5.6%
O=C(NO)c1cc(F)cc(OS(=O)(=O)Oc2ccc(Br)cc2)c1 — inhibition (HDAC1; enzyme activity, inhibitor, fluorescence; 10 µM): 22%
CCn1cc(C(=O)O)c(=O)c2c(N)c(F)c(NC3CCCCC3)cc21 — inhibition (TESK2 (Homo sapiens, UniProt Q96S53); kinase activity; 0.1 µM, added: ATP at Km): 1.3%
CC[C@H](C)[C@H](NC(=O)CN1CC=CCCC(=O)N[C@@H](Cc2ccccc2)C(=O)N[C@@H](CCC(=O)O)C1=O)C(=O)N[C@@H](Cc1ccc(O)cc1)C(=O)N[C@@H](CCCNC(=N)N)C(=O)N[C@@H](CC(C)C)C(=O)N[C@@H](CCC(=O)O)C(=O)N[C@@H](CC(C)C)C(=O)N[C@@H](CC(C)C)C(=O)N[C@@H](CCCCN)C(N)=O — inhibition (GTPase HRas, with SOS1 catalytic domain (HRAS, Homo sapiens, UniProt P01112); Sos-mediated nucleotide exchange, mant-GDP release; 25 µM, added: Sos 1 µM, GDP 100 µM): < 10%
Cc1[nH]nc2c1N=C(c1ccccc1Cl)c1cnc(N3CCOCC3)cc1N2 — inhibition (Grin1 (Rattus norvegicus, UniProt P35439); 10 µM, rat off-target panel): 11%
CN(Cc1ccc(/C=C/C(=O)NO)cc1)CC12CC3CC(CC(C3)C1)C2 — inhibition (MMP-3; enzyme activity; 0.05 µM): 5%
O=C1c2sc(-c3ccc(N4CCC(CO)CC4)nc3F)nc2CCN1c1cccnc1 — inhibition (SSTR4 (Homo sapiens, UniProt P31391); ligand displacement, radioligand; 1 µM): -3%
C=CC[C@@H]1NC(=O)[C@H](CCSC)NC(=O)CCSCc2cccc(n2)CSCCNC(=O)[C@H](CCCCCC(=O)N(O)CCCCCC)NC1=O — inhibition (HDAC1; enzyme activity, inhibitor, fluorogenic; 30 µM): 55%

A few entries again:
C[Si](C)(C)C[C@H](CN)CC(=O)O — inhibition (nicotinic acetylcholine receptor, rat; binding, radioligand binding; 250 µM, added: [3H]cytisine): -1%
Cc1c(COc2cc(OCc3cccc(C#N)c3)c(CN3CCCC[C@@H]3C(=O)O)cc2Cl)cccc1-c1cccc(OCCCCCC(=O)NO)c1 — inhibition (HDAC1; enzyme activity, inhibitor; 1 µM): 85.3%
